{"data": "Measured values from different studies", "note": "Parts stem from different laboratories: compare values within a part only."}
{"data": "Set 1", "target": "Prothrombin, mature alpha-thrombin (F2, Homo sapiens, UniProt P00734)", "method": "aptamer microarray, sandwich", "molecule type": "DNA with 2'F-ANA", "sample": "in vitro", "tested at": "200 nM", "notes": "whole 15-mer aptamer, many near background", "added": "Cy3 exosite-II aptamer, 400 nM", "direction": "higher = stronger binding"}
{"Sequence": "GGTTGGTGTGGTTGG (2'F-ANA at 3 4 7 10 11 15)", "mean fluorescence intensity": "261 a.u."}
{"Sequence": "GGTTGGTGTGGTTGG (2'F-ANA at 3 4 7 8 9 12 14 15)", "mean fluorescence intensity": "392 a.u."}
{"Sequence": "GGTTGGTGTGGTTGG (2'F-ANA at 3 6 7 8 9 10 11 12 14)", "mean fluorescence intensity": "375 a.u."}
{"Sequence": "GGTTGGTGTGGTTGG (2'F-ANA at 3 4 5 8 10 12 14)", "mean fluorescence intensity": "49.6 a.u."}
{"data": "Set 2", "target": "Histone acetyltransferase KAT6A, winged helix 2, GST fusion (KAT6A, Homo sapiens, UniProt Q92794, residues 85-181)", "method": "protein binding microarray", "molecule type": "double-stranded DNA, one strand shown", "sample": "in vitro", "tested at": "not given", "notes": "8-mer, flanks averaged, mean of 2 arrays, mostly near background", "baseline": "not given", "direction": "higher = stronger binding", "Residues (chain)": "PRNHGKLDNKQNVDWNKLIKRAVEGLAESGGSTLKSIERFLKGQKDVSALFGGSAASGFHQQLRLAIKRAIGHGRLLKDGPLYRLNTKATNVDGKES"}
{"Sequence": "ACCCAGTC", "E-score": 0.0826}
{"Sequence": "AGTGTAAT", "E-score": -0.109}
{"Sequence": "ACCGAACG", "E-score": 0.1}
{"Sequence": "CGTCGCCC", "E-score": 0.0724}
{"data": "Set 3", "target": "Sal-like protein 4, full length isoform B (SALL4, Homo sapiens, UniProt Q9UJQ4-2, residues 1-616)", "method": "universal PBM", "molecule type": "double-stranded DNA, one strand shown", "sample": "in vitro", "tested at": "not given", "notes": "8-mer, flanks averaged, mean of replicates", "direction": "higher = stronger binding", "Construct (chain)": "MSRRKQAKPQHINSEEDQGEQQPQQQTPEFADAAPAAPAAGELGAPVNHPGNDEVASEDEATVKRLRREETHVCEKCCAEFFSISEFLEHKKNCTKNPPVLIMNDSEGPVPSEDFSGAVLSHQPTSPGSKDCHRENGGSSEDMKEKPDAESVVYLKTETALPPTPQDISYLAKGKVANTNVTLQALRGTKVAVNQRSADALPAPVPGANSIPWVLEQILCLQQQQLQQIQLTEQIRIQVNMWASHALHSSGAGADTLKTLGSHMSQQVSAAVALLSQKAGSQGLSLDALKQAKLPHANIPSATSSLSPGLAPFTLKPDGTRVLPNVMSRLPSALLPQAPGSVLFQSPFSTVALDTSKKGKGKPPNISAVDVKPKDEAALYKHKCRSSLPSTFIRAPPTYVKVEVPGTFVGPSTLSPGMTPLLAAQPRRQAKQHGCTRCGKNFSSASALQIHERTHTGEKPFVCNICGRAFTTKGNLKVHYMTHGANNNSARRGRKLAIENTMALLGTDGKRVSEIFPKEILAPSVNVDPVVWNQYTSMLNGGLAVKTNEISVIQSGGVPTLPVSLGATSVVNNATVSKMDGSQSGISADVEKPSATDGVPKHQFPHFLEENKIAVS"}
{"Sequence": "GGGTTACA", "E-score": -0.0266}
{"Sequence": "GACAGAGA", "E-score": 0.00413}
{"Sequence": "GGAGTGCA", "E-score": -0.126}
{"data": "Single results of other studies"}
{"Substance": "PhoQ, residues 284 288 289 292 302 303 SLANKL", "target": "PhoP, residues 12 14 15 18 19 NQCAL (Escherichia coli, UniProt P23836)", "assay": "Sort-seq, measured: YFP reporter", "test system": "E. coli", "conditions": "PhoQ-PhoP variant library, added: 10 µM Mg2+", "scale": "baseline: high Mg2+ state, higher = stronger signaling", "quantity": "fold induction", "value": 7.31}
{"note": "Some of these lines once more (single results of other studies):"}
{"Substance": "PhoQ, residues 284 288 289 292 302 303 SLANKL", "target": "PhoP, residues 12 14 15 18 19 NQCAL (Escherichia coli, UniProt P23836)", "assay": "Sort-seq, measured: YFP reporter", "test system": "E. coli", "conditions": "PhoQ-PhoP variant library, added: 10 µM Mg2+", "scale": "baseline: high Mg2+ state, higher = stronger signaling", "quantity": "fold induction", "value": 7.31}
